Measured values pooled from the literature.
Every numbered part comes from another study and shows a few of its results, in no order. Changes are numbered by the printed parent chain.

Block 1 — technique: RNA Bind-n-Seq; molecule type: RNA; matrix: in vitro; concentration: not given; notes: RNA with constant flanks, ends assumed; relative to: input RNA pool; reading: higher = stronger binding
Target: RING finger protein unkempt homolog, zinc fingers 1-6, GST-SBP tag (UNK, Homo sapiens, UniProt Q9C0B0, residues 30-357)
Residues (chain): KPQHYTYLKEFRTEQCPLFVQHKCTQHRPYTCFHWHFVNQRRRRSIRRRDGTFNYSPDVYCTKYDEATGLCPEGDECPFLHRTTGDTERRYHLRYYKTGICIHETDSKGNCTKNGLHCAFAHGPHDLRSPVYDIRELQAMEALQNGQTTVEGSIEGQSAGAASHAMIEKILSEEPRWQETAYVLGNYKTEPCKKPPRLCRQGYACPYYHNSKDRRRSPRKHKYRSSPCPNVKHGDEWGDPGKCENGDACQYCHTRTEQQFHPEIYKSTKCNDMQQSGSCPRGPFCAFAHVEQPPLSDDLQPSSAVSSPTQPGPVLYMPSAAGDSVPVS
For `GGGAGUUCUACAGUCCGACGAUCUCUGAGACUUCUUUCUUCCUUCCUUUUUUUUUUUUUGUUUUUUUUUUUAAGAGCCUGUGACCGUUACUGUGGAGCAGCCAGUUCAUGGGGUCCCCCUUGGGGCCCCACACCCCGUCUCUCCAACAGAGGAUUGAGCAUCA`, the bound/input enrichment was 1.64 ratio.
`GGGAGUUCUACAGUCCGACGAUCGAGACCCUGCGCAUGCACGCUGGCUCCCAGCUCACUAGGCUGUCACCCAGUCCUGUCAUUCUCCGACCAUUCAUCUGUCUGUCCAUUUUGCACGAAGAUUCCCCUCUCCUCCCCAACCCUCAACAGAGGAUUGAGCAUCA` gave a bound/input enrichment of 0.562 ratio.
With `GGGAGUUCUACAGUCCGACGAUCGACAGUGAAAAUGCUGAACCAGAUCUGGACGACAAUGAGGAUGAGGAGGAGCCUGCCGCCGAAAUUGAACCUGAGCCAGAGCCUCAGCCUGUGACCCCAGCCCCACCACCCGCCAAGAAGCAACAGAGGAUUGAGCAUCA` the bound/input enrichment was 0.225 ratio.
For `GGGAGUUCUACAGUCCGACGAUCCAUUGACCUGUCAUGCCUCGCCUGGAGGCAGCAGCAUUGGGGAUCCCCUCCAUGGGGUUCACCGAAAUAAGUGCAAUUUUUUUACACCCCUGAAACAAUUUGAAGGGAAGCAGCAUUACUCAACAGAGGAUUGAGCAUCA`, the bound/input enrichment was 0.226 ratio.
`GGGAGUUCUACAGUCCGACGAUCGACUUGCUUCUACAGGCUUGUCCUUUGGGUACUUUAUUGGAUGCUAACUUGCAGAAUUCACUGAACCGCAUUAAUUCCGUAUCUGUGACUCAGCCGCAAAAACAGCCAGCCUGGAAAGUUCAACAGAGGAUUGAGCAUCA` gave a bound/input enrichment of 0.0998 ratio.
The bound/input enrichment of `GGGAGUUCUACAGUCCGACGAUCAAAAUUUUUGCCUUUGCCAACUCACUAGUGGAACUUCUGGCUGUGGGGUUAGAAACCUUUAACCGAGCACGCUAUAGGCAGUUUGUGAAGCGAAUUGGUUAUAUGAUCAGGAUGACUCUUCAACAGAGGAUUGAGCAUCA` is reported as 0.341 ratio.

Block 2 — technique: RNA Bind-n-Seq; molecule type: RNA; matrix: in vitro; concentration: 200 nM; notes: whole 134-nt RNA, ends assumed; added: 150 mM KCl; relative to: input library; reading: higher = stronger binding
Target: Fragile X messenger ribonucleoprotein 1, C-terminal low-complexity region (Fmr1, Mus musculus, UniProt P35922)
With `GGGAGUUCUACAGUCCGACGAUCGCAGGAAGUAAAAACAAAUGGAAAUAAAUCGGAUAGUGGCAGGGGUGGGGGUUGCUAAGGAAAGGGUGGGAUGGGAGUGGGUAAAGAGUUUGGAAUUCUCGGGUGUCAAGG` the log2 enrichment was 0.241.
`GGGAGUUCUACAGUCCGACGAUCAGUCCUGUGCUACACAUCGUAUGUACCGAAUCGGGGUGGGGAAAAAGGGGAAAGGGGAAAGUAUUAUGUUACGCCGUUCGGAUCUGCACUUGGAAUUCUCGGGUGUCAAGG` gave a log2 enrichment of 0.619.
`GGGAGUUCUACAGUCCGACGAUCUAACUUUAGAGGAGGAUCUGAUGGAUAUGGCAGUGGACGUGGAUUUGGGGAUGGCUAUAAUGGGUAUGGAGGCGGACCUGGAGGUGGCAAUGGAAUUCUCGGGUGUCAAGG` has a log2 enrichment of 0.191.
With `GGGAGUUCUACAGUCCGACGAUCGCAGGAAGUAAAAACAAAUGGAAAUGCUUCGGAUAGUGGCAAAGGUGGGGGUUGCUAAGGAAAGGGUGGGAUGGGAGUGGGUAAAGAGUUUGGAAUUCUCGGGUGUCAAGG` the log2 enrichment was 0.654.
`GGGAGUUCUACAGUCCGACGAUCAGUCCUGUGCUACACAUCGUAUGUACCGAAUCGGGUUUUUUUGGGAAAGGGAAAGGGAAAGUAUUAUGUUACGCCGUUCGGAUCUGCACUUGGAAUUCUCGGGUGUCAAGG` gave a log2 enrichment of -0.0233.
With `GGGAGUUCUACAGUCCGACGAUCCAAGUCCUGUGCUACACAUCGUAUGUACCGAAUCGGUUUGGGGUUUGGGUUUGGGAAAGUAUUAUGUUACGCCGUUCGGAUCUGCACUUCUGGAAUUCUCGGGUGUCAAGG` the log2 enrichment was 0.0926.
For `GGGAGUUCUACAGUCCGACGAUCGUCCUGUGCUACACAUCGUAUGUACCGAAUCGGGGAAAAAGGGGUUUUUGGGGUGGGGAAAGUAUUAUGUUACGCCGUUCGGAUCUGCACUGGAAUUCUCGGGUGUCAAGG`, the log2 enrichment was 0.567.
`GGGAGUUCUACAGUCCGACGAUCCCUGUGCUACACAUCGUAUGUACCGAAUCGGUUUUUUGGGGUUUUUUGGGGUUUUUUGGGAAAGUAUUAUGUUACGCCGUUCGGAUCUGCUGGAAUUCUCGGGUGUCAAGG` has a log2 enrichment of -0.498.
`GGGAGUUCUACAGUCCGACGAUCUAACUUUAGAGGAGGAUCUGAUGGAUAUGGCAGUGGACGUUGAUUUGGGGAUGGCUAUAAUGGGUAUGGAGGAGGACCUGGAGGUGGCAAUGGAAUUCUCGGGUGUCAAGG` has a log2 enrichment of 0.237.
With `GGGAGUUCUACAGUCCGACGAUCCCUGUGCUACACAUCGUAUGUACCGAAUCGGGUUUUUUUGGUUUUUUUGGGUUUUUUUGGAAAGUAUUAUGUUACGCCGUUCGGAUCUGCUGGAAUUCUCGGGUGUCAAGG` the log2 enrichment was -0.4.

Block 3 — technique: competition protein-binding microarray; molecule type: double-stranded DNA, one strand shown; matrix: in vitro; concentration: 2 µM; added: Cbf1 competitor, 0.05 µM; reading: higher = stronger binding
Target: Phosphate system positive regulatory protein PHO4, full length, GST-tagged (PHO4, Saccharomyces cerevisiae, UniProt P07270, residues 1-312)
Notes: whole 60-bp probe, lowest competitor level
Construct (chain): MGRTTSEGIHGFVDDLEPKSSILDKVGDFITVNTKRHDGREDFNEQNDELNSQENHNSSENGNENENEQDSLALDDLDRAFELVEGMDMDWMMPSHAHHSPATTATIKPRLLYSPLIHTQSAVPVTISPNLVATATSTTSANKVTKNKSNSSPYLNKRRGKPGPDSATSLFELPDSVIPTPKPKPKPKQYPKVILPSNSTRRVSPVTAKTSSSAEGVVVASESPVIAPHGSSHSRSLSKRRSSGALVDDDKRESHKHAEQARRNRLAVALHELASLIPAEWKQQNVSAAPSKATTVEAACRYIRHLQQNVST
With `CATGGCCTCAATGGCCGCGTGTCCAGAGAGTGGACTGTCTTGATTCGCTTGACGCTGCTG` the fluorescence intensity was 7020 a.u.
The fluorescence intensity of `TAAACACCATCACTACACGTTTTAAACAAAACAAACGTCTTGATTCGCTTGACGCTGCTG` is reported as 12100 a.u.
The fluorescence intensity of `AGTGCTCCGTTAAAGCCTGTGACAGTAGCAACGACAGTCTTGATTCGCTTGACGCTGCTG` is reported as 3460 a.u.
For `CCTTAGTTGGGTCTGCATGTGGGCAGGATCTACCAAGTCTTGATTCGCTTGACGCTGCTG`, the fluorescence intensity was 9550 a.u.
With `CATACCCAACCTTGACCTGTGGGTGAAGATATTTGTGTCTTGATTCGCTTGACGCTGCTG` the fluorescence intensity was 4340 a.u.
`CATTTCTGGGAGCTGCATGTGGGTGACGCAGCAGCAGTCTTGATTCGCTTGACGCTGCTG` has a fluorescence intensity of 10600 a.u.
The fluorescence intensity of `ATGGACCCGCATAGAAACGTGAGACTGAGAGGATATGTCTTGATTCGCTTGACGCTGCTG` is reported as 9190 a.u.
The fluorescence intensity of `AGAATCAAAGCTCACCACGTCATAGTTGCGAAAGCCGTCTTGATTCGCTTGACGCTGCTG` is reported as 5200 a.u.
`GGATAATGCTTTTTTCCCGTGGCCGTTACATTTTTGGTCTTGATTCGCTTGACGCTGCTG` has a fluorescence intensity of 6220 a.u.
With `GGCCAGATCAATCAGCTCGTGTGGATAGGTTAGGTTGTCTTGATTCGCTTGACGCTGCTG` the fluorescence intensity was 8720 a.u.
`CGTCCTAGTGATTGTCACAAAACTTCCATGAGGAAGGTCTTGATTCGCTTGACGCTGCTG` gave a fluorescence intensity of 4090 a.u.
`ATCCAAAAGTTGAACGACATGACAAGGTAGTTCCGAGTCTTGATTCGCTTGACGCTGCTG` has a fluorescence intensity of 4060 a.u.
`TCTGATTCGTTAAAATACGTGATGGTGTTATTTTTAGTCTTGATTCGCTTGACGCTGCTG` has a fluorescence intensity of 4840 a.u.
`CTCGCATAACGCAGGCACAGGTCTCGAACTGCGGTGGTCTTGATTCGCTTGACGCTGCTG` gave a fluorescence intensity of 4870 a.u.
`TGTTTTTTCTTCTGTCAGGTGAAAGTATAGGACCAAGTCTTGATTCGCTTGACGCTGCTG` has a fluorescence intensity of 2990 a.u.
`ATGGCAACGAGGTCGCACACGCCAGACACCCAGACCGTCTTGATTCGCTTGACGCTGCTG` gave a fluorescence intensity of 7620 a.u.
For `AGTGCCACCTTAAAGCACGCAGTTACTGTTTACGCTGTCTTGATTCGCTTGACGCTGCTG`, the fluorescence intensity was 8620 a.u.

Block 4 — technique: DHFR PCA, deep sequencing; matrix: yeast; added: (+)-ABA 0.11 µM; relative to: wild-type fitted maximum; reading: higher = stronger binding
Target: ABI1, truncated, D143A, DHFR fusion (Arabidopsis thaliana)
Notes: methotrexate growth selection, single substitutions
Starting sequence: PYL1, truncated, DHFR fusion (Arabidopsis thaliana); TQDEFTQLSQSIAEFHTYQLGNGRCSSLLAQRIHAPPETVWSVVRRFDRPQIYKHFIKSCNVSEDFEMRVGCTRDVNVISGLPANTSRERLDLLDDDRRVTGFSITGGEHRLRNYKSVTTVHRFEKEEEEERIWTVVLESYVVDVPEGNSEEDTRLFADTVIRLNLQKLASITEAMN; partner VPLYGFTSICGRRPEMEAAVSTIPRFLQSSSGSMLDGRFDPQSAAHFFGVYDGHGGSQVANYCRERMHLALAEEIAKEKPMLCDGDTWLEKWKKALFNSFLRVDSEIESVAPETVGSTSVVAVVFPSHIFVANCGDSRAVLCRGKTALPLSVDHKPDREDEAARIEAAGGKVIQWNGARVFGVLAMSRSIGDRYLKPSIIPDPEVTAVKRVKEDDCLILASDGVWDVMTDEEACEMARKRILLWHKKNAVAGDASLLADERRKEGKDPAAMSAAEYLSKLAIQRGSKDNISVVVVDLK
For `F157M`, “relative binding score” read 6.51%.
`L156R`: “relative binding score” 5.81%.
`V145D`: “relative binding score” -12%.
`N85T`: “relative binding score” 69.4%.
For `S150N`, “relative binding score” read 27.3%.
`Q2D` — result for “relative binding score”: 53.3%.
`S171G` — result for “relative binding score”: 13.2%.
Under “relative binding score”, `I52L` is recorded as 46%.
For `V44M`, “relative binding score” read 5.38%.
For `D48P`, “relative binding score” read -6.39%.
`E4W`: “relative binding score” 24.2%.
`F15R`: “relative binding score” -8.06%.

Block 5 — target: CCNA2, cyclin fold, Cln2 fusion (human); technique: yeast growth competition, sequencing; matrix: yeast; notes: strong parent motif; relative to: not given; reading: higher = stronger binding
Starting sequence: E2F1 docking peptide (human); PPVKRRLDFETDH; partner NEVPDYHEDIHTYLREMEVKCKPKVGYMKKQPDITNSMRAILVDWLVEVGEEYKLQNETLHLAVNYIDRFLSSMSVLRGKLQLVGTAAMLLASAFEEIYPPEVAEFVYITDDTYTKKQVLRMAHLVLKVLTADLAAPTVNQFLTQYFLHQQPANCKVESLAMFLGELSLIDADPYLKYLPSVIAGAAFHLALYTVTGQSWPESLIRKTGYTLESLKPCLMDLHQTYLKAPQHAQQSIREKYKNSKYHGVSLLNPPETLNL
For `PPVKRRLDFNTDH [E10N]`, “normalised enrichment score” read 6.4.
For `PPVKGRLDFETDH [R5G]`, “normalised enrichment score” read 1.73.
For `PQVKRRLDFETDH [P2Q]`, “normalised enrichment score” read 6.08.
`PPVRRRLDFETDH [K4R]` — result for “normalised enrichment score”: 5.99.
`PPVKRRLDFETNH [D12N]` — result for “normalised enrichment score”: 6.25.
`PPQKRRLDFETDH [V3Q]`: “normalised enrichment score” 2.47.
For `PPVKRRLVFETDH [D8V]`, “normalised enrichment score” read 5.28.
`PPVKRRLDFEVDH [T11V]`: “normalised enrichment score” 5.59.
`PPVCRRLDFETDH [K4C]` — result for “normalised enrichment score”: 5.03.

For quick reference, copied from above (block 5):
`PPVRRRLDFETDH [K4R]` — result for “normalised enrichment score”: 5.99.
`PPVKRRLDFETNH [D12N]` — result for “normalised enrichment score”: 6.25.
`PPQKRRLDFETDH [V3Q]`: “normalised enrichment score” 2.47.
For `PPVKRRLVFETDH [D8V]`, “normalised enrichment score” read 5.28.
